{"data": "Published values of several laboratories", "note": "Numbered parts are unrelated; each lists some results of a single study. pEC50: −log10 of the molar value.", "sequence of UniProt Q16512 (whole entry, looked up)": "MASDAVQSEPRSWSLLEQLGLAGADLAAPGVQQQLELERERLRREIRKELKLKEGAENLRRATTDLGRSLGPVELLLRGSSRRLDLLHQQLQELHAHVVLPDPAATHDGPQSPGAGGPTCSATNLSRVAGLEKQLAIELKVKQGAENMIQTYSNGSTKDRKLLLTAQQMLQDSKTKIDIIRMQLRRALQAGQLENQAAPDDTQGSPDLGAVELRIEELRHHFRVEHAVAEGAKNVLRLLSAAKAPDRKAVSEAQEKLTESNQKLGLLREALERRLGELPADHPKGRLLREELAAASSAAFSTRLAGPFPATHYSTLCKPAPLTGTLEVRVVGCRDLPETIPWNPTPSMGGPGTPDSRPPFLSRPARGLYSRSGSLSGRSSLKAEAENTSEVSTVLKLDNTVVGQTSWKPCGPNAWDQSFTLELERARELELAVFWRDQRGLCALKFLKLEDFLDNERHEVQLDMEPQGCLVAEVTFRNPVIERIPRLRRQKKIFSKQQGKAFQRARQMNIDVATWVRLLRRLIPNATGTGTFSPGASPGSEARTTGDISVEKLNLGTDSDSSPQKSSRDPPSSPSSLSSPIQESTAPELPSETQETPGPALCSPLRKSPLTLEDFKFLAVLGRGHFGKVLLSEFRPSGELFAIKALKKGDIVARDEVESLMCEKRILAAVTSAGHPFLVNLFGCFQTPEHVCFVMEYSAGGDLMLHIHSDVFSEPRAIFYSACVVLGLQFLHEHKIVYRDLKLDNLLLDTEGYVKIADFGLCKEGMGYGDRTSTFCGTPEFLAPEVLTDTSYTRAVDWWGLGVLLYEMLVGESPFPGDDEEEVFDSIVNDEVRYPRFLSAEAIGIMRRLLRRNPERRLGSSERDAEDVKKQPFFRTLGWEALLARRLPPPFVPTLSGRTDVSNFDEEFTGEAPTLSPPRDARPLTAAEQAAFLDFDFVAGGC", "sequence of UniProt O75116 (whole entry, looked up)": "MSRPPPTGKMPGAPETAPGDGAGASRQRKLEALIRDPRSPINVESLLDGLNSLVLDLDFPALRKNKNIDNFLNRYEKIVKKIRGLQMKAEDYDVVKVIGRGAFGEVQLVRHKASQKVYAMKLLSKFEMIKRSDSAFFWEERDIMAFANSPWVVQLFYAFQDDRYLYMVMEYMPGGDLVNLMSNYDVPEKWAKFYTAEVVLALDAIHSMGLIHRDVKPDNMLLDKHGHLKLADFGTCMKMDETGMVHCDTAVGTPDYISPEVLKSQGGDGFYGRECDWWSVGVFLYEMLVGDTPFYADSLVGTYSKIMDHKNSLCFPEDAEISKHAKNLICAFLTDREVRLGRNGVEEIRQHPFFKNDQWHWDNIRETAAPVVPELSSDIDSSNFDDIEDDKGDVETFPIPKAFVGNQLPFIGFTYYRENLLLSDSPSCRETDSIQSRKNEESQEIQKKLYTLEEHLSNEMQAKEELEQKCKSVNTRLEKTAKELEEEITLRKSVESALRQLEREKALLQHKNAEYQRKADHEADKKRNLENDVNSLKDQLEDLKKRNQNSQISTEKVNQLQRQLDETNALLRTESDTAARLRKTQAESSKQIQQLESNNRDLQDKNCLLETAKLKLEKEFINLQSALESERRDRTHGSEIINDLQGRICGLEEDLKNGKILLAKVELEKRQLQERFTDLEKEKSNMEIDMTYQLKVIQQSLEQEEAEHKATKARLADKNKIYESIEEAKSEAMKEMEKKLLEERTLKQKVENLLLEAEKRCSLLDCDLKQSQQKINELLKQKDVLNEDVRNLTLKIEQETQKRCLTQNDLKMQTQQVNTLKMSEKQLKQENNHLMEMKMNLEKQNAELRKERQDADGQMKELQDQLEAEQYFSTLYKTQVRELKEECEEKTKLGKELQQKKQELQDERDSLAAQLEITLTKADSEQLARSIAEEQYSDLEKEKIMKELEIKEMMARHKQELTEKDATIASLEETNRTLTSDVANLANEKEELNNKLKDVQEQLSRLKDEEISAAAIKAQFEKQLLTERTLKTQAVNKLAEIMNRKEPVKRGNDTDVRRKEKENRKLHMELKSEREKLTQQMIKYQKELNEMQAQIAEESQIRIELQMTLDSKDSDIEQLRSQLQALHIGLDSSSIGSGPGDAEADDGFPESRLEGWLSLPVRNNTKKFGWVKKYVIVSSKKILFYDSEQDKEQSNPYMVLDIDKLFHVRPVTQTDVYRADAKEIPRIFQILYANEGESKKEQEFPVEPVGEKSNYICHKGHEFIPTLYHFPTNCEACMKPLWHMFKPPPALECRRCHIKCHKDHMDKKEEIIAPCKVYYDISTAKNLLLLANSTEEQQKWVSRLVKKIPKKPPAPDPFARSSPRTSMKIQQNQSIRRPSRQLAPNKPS", "sequence of UniProt Q86Z02 (whole entry, looked up)": "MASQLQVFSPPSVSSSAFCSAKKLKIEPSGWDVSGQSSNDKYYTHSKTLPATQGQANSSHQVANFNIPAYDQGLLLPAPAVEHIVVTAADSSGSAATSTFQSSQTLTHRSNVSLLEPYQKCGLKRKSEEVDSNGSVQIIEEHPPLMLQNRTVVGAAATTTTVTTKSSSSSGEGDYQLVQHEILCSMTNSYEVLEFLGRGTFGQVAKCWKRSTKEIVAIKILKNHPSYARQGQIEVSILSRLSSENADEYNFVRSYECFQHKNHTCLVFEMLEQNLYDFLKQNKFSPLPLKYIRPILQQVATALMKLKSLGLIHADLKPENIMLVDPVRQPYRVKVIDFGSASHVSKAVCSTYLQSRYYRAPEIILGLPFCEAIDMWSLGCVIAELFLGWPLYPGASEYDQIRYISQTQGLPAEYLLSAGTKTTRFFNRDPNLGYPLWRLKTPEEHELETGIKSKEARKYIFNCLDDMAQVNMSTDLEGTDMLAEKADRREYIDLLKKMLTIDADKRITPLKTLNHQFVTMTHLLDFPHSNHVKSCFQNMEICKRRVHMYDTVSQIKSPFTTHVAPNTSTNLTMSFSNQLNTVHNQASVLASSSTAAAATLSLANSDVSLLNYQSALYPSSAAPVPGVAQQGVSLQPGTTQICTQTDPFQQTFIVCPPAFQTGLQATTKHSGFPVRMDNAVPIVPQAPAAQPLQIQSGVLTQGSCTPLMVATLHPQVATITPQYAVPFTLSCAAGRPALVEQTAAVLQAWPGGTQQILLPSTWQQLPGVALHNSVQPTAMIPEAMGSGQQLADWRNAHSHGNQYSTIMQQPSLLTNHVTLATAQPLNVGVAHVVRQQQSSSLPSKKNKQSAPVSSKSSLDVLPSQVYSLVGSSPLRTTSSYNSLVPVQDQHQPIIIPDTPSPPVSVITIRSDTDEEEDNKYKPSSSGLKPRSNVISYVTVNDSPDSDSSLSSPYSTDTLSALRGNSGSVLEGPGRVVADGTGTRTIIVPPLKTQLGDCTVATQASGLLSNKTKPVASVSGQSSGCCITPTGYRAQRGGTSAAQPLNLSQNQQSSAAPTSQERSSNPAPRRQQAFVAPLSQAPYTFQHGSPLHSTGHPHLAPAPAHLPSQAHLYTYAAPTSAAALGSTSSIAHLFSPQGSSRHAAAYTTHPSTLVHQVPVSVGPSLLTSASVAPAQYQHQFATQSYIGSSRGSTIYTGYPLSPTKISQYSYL", "sequence of UniProt P09769 (whole entry, looked up)": "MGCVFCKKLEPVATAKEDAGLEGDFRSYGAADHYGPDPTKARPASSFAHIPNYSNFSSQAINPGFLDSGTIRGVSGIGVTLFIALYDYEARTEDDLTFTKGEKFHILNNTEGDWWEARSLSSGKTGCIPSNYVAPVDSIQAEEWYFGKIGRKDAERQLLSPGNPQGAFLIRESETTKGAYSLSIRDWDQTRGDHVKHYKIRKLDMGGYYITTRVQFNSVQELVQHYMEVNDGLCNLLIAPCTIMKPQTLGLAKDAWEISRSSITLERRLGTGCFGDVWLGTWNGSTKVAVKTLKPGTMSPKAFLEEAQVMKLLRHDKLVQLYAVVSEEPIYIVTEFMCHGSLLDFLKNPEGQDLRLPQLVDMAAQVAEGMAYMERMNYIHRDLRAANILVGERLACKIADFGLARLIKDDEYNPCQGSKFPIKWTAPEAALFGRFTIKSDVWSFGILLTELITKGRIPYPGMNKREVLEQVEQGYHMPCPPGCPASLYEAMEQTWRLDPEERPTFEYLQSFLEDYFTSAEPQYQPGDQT", "sequence of UniProt Q9UBE8 (whole entry, looked up)": "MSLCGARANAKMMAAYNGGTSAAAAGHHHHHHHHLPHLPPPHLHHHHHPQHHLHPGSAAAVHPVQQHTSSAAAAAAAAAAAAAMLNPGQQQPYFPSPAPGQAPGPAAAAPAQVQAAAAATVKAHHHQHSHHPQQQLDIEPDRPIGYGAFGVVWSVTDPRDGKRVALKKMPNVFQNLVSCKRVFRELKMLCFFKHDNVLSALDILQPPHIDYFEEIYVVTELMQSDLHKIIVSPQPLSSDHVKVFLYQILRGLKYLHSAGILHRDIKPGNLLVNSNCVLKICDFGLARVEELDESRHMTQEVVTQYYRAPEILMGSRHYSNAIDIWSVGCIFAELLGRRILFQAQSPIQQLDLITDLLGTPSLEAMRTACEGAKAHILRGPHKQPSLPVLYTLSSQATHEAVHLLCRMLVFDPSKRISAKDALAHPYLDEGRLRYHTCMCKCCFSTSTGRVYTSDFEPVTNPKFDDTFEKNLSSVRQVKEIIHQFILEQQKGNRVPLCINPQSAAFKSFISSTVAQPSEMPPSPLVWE"}
{"data": "Block 1", "target": "Beta-1 adrenergic receptor (ADRB1, Homo sapiens, UniProt P08588)", "action": "agonist", "sequence of UniProt P08588 (whole entry, looked up)": "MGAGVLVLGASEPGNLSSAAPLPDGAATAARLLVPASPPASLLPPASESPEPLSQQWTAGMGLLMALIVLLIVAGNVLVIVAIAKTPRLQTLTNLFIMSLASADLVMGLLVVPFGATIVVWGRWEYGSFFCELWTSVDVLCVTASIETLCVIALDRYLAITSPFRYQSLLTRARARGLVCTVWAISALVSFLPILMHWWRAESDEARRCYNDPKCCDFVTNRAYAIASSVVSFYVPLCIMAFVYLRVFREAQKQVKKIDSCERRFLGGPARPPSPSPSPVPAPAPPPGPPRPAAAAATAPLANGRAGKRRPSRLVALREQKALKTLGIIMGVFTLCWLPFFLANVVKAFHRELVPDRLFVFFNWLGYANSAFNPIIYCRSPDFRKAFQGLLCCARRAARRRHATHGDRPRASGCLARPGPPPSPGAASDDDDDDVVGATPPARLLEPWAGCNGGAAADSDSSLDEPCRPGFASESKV"}
{"SMILES": "c1ccc2c(-c3cnn4cc(-c5ccc(N6CCNCC6)cc5)cnc34)ccnc2c1", "pEC50": "≤ 4.00"}
{"SMILES": "Cc1noc2c(-c3cccnc3NC3CCN(C)CC3)cc(-c3ccccc3)nc12", "pEC50": "≤ 4.00"}
{"SMILES": "Fc1ccc2c(c1)nc1n2[C@@H](CNCc2ccccc2)COC1", "pEC50": "≤ 4.00"}
{"SMILES": "CC(=O)Oc1ccc2cc(-c3nc4c(s3)CCc3ccccc3-4)c(=O)oc2c1", "pEC50": "≤ 4.00"}
{"SMILES": "CCN(Cc1cccs1)c1ncnc2ccc(-c3ccc4c(c3)OCO4)cc12", "pEC50": "≤ 4.00"}
{"SMILES": "Cc1occc1-c1nnc(SCc2cn3cccc(C)c3n2)o1", "pEC50": "≤ 4.00"}
{"SMILES": "Cc1nn(CC(=O)NCc2ccc(N(C)C)cc2)c(=O)c2nc(C(C)C)sc12", "pEC50": "≤ 4.00"}
{"data": "Block 2", "Structure (SMILES)": "CN([C@@H]1CCc2c(CC(=O)O)c3cc(S(C)(=O)=O)ccc3n2C1)S(=O)(=O)c1ccc(F)cc1", "effect on": "cell-free assay", "technique": "competition with immobilised ligand", "concentration": "1 µM"}
{"target": "FLT3 (Homo sapiens, UniProt P36888, K663Q)", "remaining binding [%]": 100}
{"target": "Cyclin-dependent kinase 4, with cyclin D3 (CDK4, Homo sapiens, UniProt P11802)", "remaining binding [%]": 93}
{"target": "GAK (Homo sapiens, UniProt O14976)", "remaining binding [%]": 93}
{"target": "CDK15 (Homo sapiens, UniProt Q96Q40)", "remaining binding [%]": 84}
{"target": "IRAK3 (Homo sapiens, UniProt Q9Y616)", "remaining binding [%]": 100}
{"target": "CILK1 (Homo sapiens, UniProt Q9UPZ9)", "remaining binding [%]": 93}
{"target": "MKNK1 (Homo sapiens, UniProt Q9BUB5)", "remaining binding [%]": 86}
{"target": "RIOK3 (Homo sapiens, UniProt O14730)", "remaining binding [%]": 94}
{"target": "ROCK2 (Homo sapiens, UniProt O75116)", "remaining binding [%]": 100}
{"target": "CAMK2D (Homo sapiens, UniProt Q13557)", "remaining binding [%]": 100}
{"target": "DDR2 (Homo sapiens, UniProt Q16832)", "remaining binding [%]": 88}
{"target": "ABL2 (Homo sapiens, UniProt P42684)", "remaining binding [%]": 100}
{"target": "KDR (Homo sapiens, UniProt P35968)", "remaining binding [%]": 85}
{"target": "DAPK3 (Homo sapiens, UniProt O43293)", "remaining binding [%]": 97}
{"target": "KIT (Homo sapiens, UniProt P10721, D816H)", "remaining binding [%]": 97}
{"target": "CSNK1E (Homo sapiens, UniProt P49674)", "remaining binding [%]": 96}
{"target": "CAMKK2 (Homo sapiens, UniProt Q96RR4)", "remaining binding [%]": 100}
{"target": "DCLK2 (Homo sapiens, UniProt Q8N568)", "remaining binding [%]": 100}
{"data": "Block 3", "organism": "Plasmodium berghei", "cell line": "Huh-7", "strain": "liver stage", "concentration": "10 µM", "time": "24 h", "baseline": "control"}
{"Structure (SMILES)": "Nc1ccc(S(N)(=O)=O)cc1", "parasite load": "117%"}
{"Structure (SMILES)": "COc1ccc(CCN2CCC(Nc3nc4ccccc4n3Cc3ccc(F)cc3)CC2)cc1", "parasite load": "22.1%"}
{"Structure (SMILES)": "CN1CCN2c3ccccc3Cc3ccccc3C2C1 (stereo not shown)", "parasite load": "98.4%"}
{"Structure (SMILES)": "CCC[C@@H]1C[C@@H](C(=O)N[C@@H]([C@H]2O[C@H](SC)[C@H](O)[C@@H](O)[C@H]2O)[C@H](C)Cl)N(C)C1", "parasite load": "108%"}
{"Structure (SMILES)": "CC(=O)Nc1nnc(S(N)(=O)=O)s1", "parasite load": "94.8%"}
{"Structure (SMILES)": "CN(C)CCOC(c1ccccc1)c1ccccc1", "parasite load": "88.5%"}
{"Structure (SMILES)": "O=C(O)COCCN1CCN(C(c2ccccc2)c2ccc(Cl)cc2)CC1 (stereo not shown)", "parasite load": "105%"}
{"Structure (SMILES)": "CCN(CC)CC(=O)Nc1c(C)cccc1C", "parasite load": "77.2%"}
{"Structure (SMILES)": "C[C@@H]1C[C@H]2[C@@H]3C[C@H](F)C4=CC(=O)C=C[C@]4(C)[C@@]3(F)[C@@H](O)C[C@]2(C)[C@@]1(O)C(=O)CO", "parasite load": "84.3%"}
{"Structure (SMILES)": "COc1cc([C@@H]2c3cc4c(cc3[C@H](O)[C@H]3COC(=O)[C@H]23)OCO4)cc(OC)c1OC", "parasite load": "96.7%"}
{"Structure (SMILES)": "OC(Cn1cncn1)(Cn1cncn1)c1ccc(F)cc1F", "parasite load": "85.1%"}
{"data": "Block 4", "SMILES": "O=C1NC(=O)c2c1c1c3ccccc3[nH]c1n1cncc21", "effect on": "enzyme activity", "action": "inhibitor", "concentration": "0.5 µM", "baseline": "control"}
{"target": "PASK (Homo sapiens, UniProt Q96RG2)", "remaining activity [%]": 33.6}
{"target": "PKN1 (Homo sapiens, UniProt Q16512)", "remaining activity [%]": 76.4}
{"target": "NLK (Homo sapiens, UniProt Q9UBE8)", "remaining activity [%]": 87.9}
{"target": "AKT1 (Homo sapiens, UniProt P31749)", "remaining activity [%]": 102}
{"target": "Cyclin-dependent kinase 3, with cyclin E (CDK3, Homo sapiens, UniProt Q00526)", "remaining activity [%]": 76.7}
{"target": "FER (Homo sapiens, UniProt P16591)", "remaining activity [%]": 47.9}
{"target": "MARK3 (Homo sapiens, UniProt P27448)", "remaining activity [%]": 29.8}
{"target": "ALK (Homo sapiens, UniProt Q9UM73)", "remaining activity [%]": 84.6}
{"target": "LIM domain kinase 1 (LIMK1, Homo sapiens, UniProt P53667)", "remaining activity [%]": 74.7}
{"target": "Insulin receptor (INSR, Homo sapiens, UniProt P06213)", "remaining activity [%]": 17.9}
{"target": "FGR (Homo sapiens, UniProt P09769)", "remaining activity [%]": 94.8}
{"target": "HIPK1 (Homo sapiens, UniProt Q86Z02)", "remaining activity [%]": 82.6}
{"target": "FYN (Homo sapiens, UniProt P06241)", "remaining activity [%]": 97.7}
{"target": "SRC (Homo sapiens, UniProt P12931)", "remaining activity [%]": 88.4}
{"target": "MATK (Homo sapiens, UniProt P42679)", "remaining activity [%]": 99.8}
{"target": "TAOK3 (Homo sapiens, UniProt Q9H2K8)", "remaining activity [%]": 66.9}
{"target": "STK25 (Homo sapiens, UniProt O00506)", "remaining activity [%]": 72.5}
{"target": "NEK11 (Homo sapiens, UniProt Q8NG66)", "remaining activity [%]": 99}
{"target": "FLT4 (Homo sapiens, UniProt P35916)", "remaining activity [%]": 56.6}
{"target": "PRKX (Homo sapiens, UniProt P51817)", "remaining activity [%]": 87.8}
{"target": "CDC42BPA (Homo sapiens, UniProt Q5VT25)", "remaining activity [%]": 92.7}
{"target": "ITK (Homo sapiens, UniProt Q08881)", "remaining activity [%]": 71.4}
{"note": "Repeated from above (block 4):"}
{"target": "MARK3 (Homo sapiens, UniProt P27448)", "remaining activity [%]": 29.8}
{"target": "SRC (Homo sapiens, UniProt P12931)", "remaining activity [%]": 88.4}
{"target": "Cyclin-dependent kinase 3, with cyclin E (CDK3, Homo sapiens, UniProt Q00526)", "remaining activity [%]": 76.7}
